Assay results collected from several papers.
Lines come from different studies, so protocols differ. Values joined by “and” are separate records of one study, mostly repeats; a detail may differ. ± marks the error that the study gave.
Chain of UniProt Q01959 (whole entry, unmodified, looked up): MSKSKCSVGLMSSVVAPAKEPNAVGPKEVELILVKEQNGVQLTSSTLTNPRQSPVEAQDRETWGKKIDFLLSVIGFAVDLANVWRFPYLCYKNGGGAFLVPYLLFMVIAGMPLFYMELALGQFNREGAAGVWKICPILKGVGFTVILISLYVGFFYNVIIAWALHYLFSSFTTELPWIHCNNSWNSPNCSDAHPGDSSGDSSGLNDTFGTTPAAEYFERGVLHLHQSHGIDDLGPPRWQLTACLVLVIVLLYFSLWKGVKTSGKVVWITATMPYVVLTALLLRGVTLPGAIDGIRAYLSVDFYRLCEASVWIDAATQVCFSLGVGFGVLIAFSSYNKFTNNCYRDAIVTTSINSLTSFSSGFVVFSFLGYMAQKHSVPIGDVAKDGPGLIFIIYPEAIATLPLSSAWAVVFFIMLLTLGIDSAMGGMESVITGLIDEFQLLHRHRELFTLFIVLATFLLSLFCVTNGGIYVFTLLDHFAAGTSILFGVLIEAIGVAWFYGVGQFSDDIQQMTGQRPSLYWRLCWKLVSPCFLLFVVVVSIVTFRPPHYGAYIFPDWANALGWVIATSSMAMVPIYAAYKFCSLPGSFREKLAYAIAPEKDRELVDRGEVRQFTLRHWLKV
Chain of UniProt P08172 (whole entry, looked up): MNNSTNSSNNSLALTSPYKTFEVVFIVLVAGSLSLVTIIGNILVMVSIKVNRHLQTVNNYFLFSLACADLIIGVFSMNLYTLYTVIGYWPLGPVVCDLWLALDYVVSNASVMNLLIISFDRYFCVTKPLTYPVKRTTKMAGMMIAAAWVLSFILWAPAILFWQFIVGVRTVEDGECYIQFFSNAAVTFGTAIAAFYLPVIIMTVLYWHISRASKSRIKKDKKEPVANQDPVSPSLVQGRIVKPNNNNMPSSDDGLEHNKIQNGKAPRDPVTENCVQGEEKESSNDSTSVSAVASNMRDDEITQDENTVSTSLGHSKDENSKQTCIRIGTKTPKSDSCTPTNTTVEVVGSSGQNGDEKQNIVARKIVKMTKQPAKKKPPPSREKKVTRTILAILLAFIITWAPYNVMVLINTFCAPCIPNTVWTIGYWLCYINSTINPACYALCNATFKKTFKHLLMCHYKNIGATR
Chain of UniProt P16257 (whole entry, looked up): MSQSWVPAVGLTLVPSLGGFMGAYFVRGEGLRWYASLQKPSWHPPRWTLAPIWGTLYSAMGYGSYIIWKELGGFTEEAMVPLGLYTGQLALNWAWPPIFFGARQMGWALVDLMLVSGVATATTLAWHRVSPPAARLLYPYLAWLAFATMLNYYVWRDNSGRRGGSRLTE
Chain of UniProt Q8NET8 (whole entry, unmodified, looked up): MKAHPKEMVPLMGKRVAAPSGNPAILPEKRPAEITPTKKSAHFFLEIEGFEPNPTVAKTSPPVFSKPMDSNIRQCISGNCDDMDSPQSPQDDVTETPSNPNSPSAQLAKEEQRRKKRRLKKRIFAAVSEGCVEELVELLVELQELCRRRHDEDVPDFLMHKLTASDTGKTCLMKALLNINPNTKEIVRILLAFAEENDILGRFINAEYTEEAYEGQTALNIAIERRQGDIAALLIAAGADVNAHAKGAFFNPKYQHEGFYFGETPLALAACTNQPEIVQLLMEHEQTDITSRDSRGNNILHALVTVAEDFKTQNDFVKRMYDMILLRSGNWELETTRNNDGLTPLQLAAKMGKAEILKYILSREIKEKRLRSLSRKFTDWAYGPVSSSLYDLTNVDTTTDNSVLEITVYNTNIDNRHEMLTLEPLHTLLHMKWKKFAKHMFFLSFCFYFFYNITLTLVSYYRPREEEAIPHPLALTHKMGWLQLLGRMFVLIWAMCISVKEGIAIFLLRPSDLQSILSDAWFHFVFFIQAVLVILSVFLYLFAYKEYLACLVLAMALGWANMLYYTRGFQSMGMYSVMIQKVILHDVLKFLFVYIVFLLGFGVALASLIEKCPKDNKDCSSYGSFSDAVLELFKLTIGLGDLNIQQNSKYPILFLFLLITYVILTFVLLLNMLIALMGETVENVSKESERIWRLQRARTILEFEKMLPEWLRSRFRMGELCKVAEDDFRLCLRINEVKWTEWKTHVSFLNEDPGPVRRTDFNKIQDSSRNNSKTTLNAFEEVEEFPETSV
Chain of UniProt Q96P68 (whole entry, looked up): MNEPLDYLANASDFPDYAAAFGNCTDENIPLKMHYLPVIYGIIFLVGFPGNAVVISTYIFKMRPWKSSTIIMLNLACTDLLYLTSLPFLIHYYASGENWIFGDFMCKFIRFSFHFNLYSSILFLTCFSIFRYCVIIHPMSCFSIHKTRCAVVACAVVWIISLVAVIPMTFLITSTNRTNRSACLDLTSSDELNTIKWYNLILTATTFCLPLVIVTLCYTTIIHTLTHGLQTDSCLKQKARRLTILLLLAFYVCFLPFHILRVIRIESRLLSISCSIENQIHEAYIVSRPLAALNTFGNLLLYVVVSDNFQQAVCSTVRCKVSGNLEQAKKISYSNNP
Chain of UniProt P9WKI7 (whole entry, looked up): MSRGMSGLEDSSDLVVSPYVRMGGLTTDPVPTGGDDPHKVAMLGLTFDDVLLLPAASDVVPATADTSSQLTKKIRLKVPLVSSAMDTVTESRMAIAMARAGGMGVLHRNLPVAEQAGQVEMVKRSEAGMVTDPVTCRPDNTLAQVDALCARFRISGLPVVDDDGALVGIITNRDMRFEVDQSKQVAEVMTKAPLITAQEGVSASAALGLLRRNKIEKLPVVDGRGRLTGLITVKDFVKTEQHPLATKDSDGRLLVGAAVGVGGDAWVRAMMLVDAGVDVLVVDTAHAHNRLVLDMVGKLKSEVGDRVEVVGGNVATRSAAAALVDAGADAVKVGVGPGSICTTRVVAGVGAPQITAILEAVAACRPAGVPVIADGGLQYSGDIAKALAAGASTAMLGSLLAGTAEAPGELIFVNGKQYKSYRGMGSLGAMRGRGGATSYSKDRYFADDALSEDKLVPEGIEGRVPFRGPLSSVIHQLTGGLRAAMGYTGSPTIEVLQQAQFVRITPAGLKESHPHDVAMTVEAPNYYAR
Chain of UniProt P28335 (whole entry, looked up): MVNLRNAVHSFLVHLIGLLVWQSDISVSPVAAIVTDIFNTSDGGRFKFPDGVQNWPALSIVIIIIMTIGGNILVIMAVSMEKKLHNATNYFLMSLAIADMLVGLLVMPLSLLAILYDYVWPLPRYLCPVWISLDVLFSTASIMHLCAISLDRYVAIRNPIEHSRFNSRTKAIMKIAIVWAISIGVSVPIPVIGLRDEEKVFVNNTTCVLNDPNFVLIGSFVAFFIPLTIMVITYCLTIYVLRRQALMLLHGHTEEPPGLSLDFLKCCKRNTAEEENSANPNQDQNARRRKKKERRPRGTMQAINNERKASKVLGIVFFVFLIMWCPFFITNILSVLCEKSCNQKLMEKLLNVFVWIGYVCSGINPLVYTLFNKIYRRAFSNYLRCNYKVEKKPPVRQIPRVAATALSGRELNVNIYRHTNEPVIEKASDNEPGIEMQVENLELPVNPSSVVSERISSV
Chain of UniProt P25021 (whole entry, looked up): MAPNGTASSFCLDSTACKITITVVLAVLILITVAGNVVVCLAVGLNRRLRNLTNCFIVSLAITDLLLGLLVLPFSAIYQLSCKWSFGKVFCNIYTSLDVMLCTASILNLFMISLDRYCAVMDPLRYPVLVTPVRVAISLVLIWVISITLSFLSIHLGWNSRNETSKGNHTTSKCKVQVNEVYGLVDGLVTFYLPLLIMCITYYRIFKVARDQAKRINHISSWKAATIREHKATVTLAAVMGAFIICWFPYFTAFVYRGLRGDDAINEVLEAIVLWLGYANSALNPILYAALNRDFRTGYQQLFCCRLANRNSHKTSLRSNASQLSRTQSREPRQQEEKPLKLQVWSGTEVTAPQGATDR

| Structure (SMILES) | target | assay | test system | conditions | scale | endpoint | value |
| --- | --- | --- | --- | --- | --- | --- | --- |
| CN1CC[C@@]2(C)c3cc(OC(=O)Nc4ccccc4)ccc3N(C)[C@@H]12 | human nicotinic α3β4 receptor | radioligand binding | – | 10 µM, together with: [3H]epibatidine | – | inhibition | 12.3% |
| Clc1cc(Cl)cc(N2CCNCC2)c1 | Muscarinic acetylcholine receptor M2 (CHRM2, Homo sapiens, UniProt P08172) | ERK1/2 phosphorylation, agonist | CHO cells | – | – | Emax | < 10% |
| NC(=O)c1ccc[n+]([C@@H]2O[C@H](COP(=O)([O-])OP(=O)(O)OC[C@H]3O[C@@H](n4cnc5c(N)ncnc54)[C@H](O)[C@@H]3O)[C@@H](O)[C@H]2O)c1 | Inosine-5'-monophosphate dehydrogenase (Mycobacterium tuberculosis, UniProt P9WKI7) | substrate | – | – | – | Km | 940 ± 31 µM |
| CCCc1cc(O)c2c(c1)OC(C)(C)[C@@H]1CCC(C)=C[C@@H]21 | Transient receptor potential cation channel subfamily V member 3 (TRPV3, Homo sapiens, UniProt Q8NET8, E501A) | calcium uptake, agonist | HEK293S | mutant E501A, site 2 | – | Hill coefficient | 2.1 ± 0.05 |
| CCCCCCCC[C@H]1O[C@H]1C/C=C/C=C/[C@H](O)CC(=O)NC1=C[C@](C)(CC)OC1=O | Na(+)-translocating NADH-quinone reductase subunit B, whole Na+-NQR complex (nqrB, Vibrio cholerae serotype O1, UniProt Q9KPS2, G141A) | binding, isothermal titration calorimetry | – | 20 °C, NqrB-G141A mutant | – | −TΔS | 60 kcal/mol |
| Brc1ccc2c(c1)C(c1ccccn1)=NCc1c(-c3cnco3)ncn1-2 | Translocator protein (Tspo, Rattus norvegicus, UniProt P16257) | – | rat | 10 µM | – | inhibition | 93.4% |
| COc1cc(CCNC(C)c2ccccc2O)c(OC)cc1C#N (single isomer, unassigned; (-)) | 5-hydroxytryptamine receptor 2C (HTR2C, Homo sapiens, UniProt P28335) | calcium flux, agonist | – | – | relative to: 5-HT | Emax | 98% |
| C=CCN1CC[C@]23c4c5ccc(O)c4O[C@H]2C(=O)CC[C@]3(O)[C@H]1C5 | Histamine H2 receptor (HRH2, Homo sapiens, UniProt P25021) | – | – | concentration not given | – | inhibition | 9.7% |
| NNc1nc2ccccc2s1 | Alanine aminotransferase 1 (GPT, Sus scrofa, UniProt P13191) | uncompetitive inhibitor, LDH-coupled | – | together with: alpha-ketoglutarate 6.25 to 50 µM varied, alanine 10 mM | – | Kiu | 74 ± 8.2 µM |
| CN[C@@H](C)[C@@H](O)c1ccccc1 | OCT1 human | binding, frontal displacement chromatography | – | unit not given | relative to: higher Ki over lower Ki | enantioselectivity | 1.5 |
| CN[C@@]1(c2ccccc2Cl)CCCCC1=O | AMPA receptor | radioligand binding, agonist, radioligand displacement | – | 30 µM | – | inhibition | 1% |
| Nc1ccn([C@H]2C[C@H](O)[C@@H](COP(=O)(O)OP(=O)(O)OP(=O)(O)O)O2)c(=O)n1 | RNA-directed RNA polymerase PB1, with PA and PB2 (Influenza B virus, UniProt Q5V8Y6) | single-nucleotide incorporation, substrate | – | – | – | Vmax | 0.27 product fraction |
| c1ccc2cc([C@]34CNC[C@H]3C4)ccc2c1 | Sodium-dependent dopamine transporter (SLC6A3, Homo sapiens, UniProt Q01959, F326A) | inhibitor, [3H]dopamine uptake | – | 10 µM, F326A mutant | relative to: no inhibitor | dopamine uptake | 19.4% and 23.4% and 31.3% |
| Oc1ccc2c3c1O[C@H]1[C@@H](O)CC[C@@]4(O)[C@@H](C2)N(CC2CCC2)CC[C@]314 | 2-oxoglutarate receptor 1 (OXGR1, Homo sapiens, UniProt Q96P68) | β-arrestin recruitment, TANGO luminescence | – | concentration not given | relative to: basal luminescence | log2 fold change | 0.514 |

A few entries again:
| Structure (SMILES) | target | assay | test system | conditions | scale | endpoint | value |
| --- | --- | --- | --- | --- | --- | --- | --- |
| C=CCN1CC[C@]23c4c5ccc(O)c4O[C@H]2C(=O)CC[C@]3(O)[C@H]1C5 | Histamine H2 receptor (HRH2, Homo sapiens, UniProt P25021) | – | – | concentration not given | – | inhibition | 9.7% |
